Published values gathered from unrelated publications.
A part holds a random share of what one study measured. Changes are numbered by the printed parent chain.
Sequence of UniProt P41145 (whole entry, looked up): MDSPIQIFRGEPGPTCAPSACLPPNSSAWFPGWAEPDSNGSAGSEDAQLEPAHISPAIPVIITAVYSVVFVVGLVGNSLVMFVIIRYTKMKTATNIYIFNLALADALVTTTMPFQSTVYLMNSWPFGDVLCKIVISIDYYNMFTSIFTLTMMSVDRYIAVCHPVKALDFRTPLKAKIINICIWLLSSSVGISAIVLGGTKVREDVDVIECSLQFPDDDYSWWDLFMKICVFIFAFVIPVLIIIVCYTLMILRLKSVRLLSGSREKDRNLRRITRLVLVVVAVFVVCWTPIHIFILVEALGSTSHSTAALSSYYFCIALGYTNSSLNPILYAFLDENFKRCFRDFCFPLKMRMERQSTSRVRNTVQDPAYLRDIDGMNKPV

Sample 1
Target: HLF, bZIP domain (human)
Method: DHFR protein complementation
Matrix: yeast
Notes: single substitutions, most at no-binding floor
Reference: wild-type JUN-FOS pair
Direction: higher = stronger binding
Starting sequence: JUN, bZIP domain (human); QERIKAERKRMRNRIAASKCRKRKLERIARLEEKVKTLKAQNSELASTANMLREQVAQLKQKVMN; partner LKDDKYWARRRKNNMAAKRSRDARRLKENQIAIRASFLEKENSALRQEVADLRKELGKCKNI
Substitution | binding fitness [natural log]
L45S | -1.55
Q41G | -1.51
K36H | -1.45
L31R | -1.45
L31Y | -1.22
E54T | -1.49
T37E | -1.44
I28K | -1.37

Sample 2
Target: CCNB2, cyclin fold, Cln2 fusion (human)
Method: yeast growth competition, sequencing
Matrix: yeast
Notes: strong parent motif
Reference: not given
Direction: higher = stronger binding
Starting sequence: viral docking peptide; TSVRRALFTGGSD; partner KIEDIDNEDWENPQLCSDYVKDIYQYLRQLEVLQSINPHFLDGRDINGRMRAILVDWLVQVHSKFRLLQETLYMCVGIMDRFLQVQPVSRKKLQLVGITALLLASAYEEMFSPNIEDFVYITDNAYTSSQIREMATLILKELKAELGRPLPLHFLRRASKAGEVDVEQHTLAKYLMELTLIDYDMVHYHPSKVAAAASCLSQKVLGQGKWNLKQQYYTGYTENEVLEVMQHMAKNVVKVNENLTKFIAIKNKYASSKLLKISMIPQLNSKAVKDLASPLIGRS
Substitution | normalised enrichment score
TSGRRALFTGGSD [V3G] | -0.0335
TSVRRALFTIGSD [G10I] | 0.449
TSVRRALFTRGSD [G10R] | 0.256
TSVRRALRTGGSD [F8R] | 0.324
TSVRRALFAGGSD [T9A] | 0.498
TSVRRAWFTGGSD [L7W] | 0.203
TSVRRAPFTGGSD [L7P] | 0.00356
TSVRRQLFTGGSD [A6Q] | 1.35
TSVRRNLFTGGSD [A6N] | 0.789
TSERRALFTGGSD [V3E] | -0.0237
TSYRRALFTGGSD [V3Y] | 0.562
TSVRRALFTGGQD [S12Q] | 0.778
ASVRRALFTGGSD [T1A] | 1.24
TYVRRALFTGGSD [S2Y] | 0.317
TSVRRALFTGCSD [G11C] | 1.08
TSLRRALFTGGSD [V3L] | 0.896
TSVRRAVFTGGSD [L7V] | 0.39
TSVRVALFTGGSD [R5V] | 0.117
TSVRMALFTGGSD [R5M] | 0.548
TSVRRALFTGMSD [G11M] | 0.793
TSVRRYLFTGGSD [A6Y] | 0.553
TSVREALFTGGSD [R5E] | -0.192
TSVRRALFTGPSD [G11P] | 1.27
TSDRRALFTGGSD [V3D] | -0.128
TSVRRALFTGGND [S12N] | 1.09

Sample 3
Target: HLA class I histocompatibility antigen, A alpha chain, allele A*80:01 (Homo sapiens, UniProt P04439)
Effect on: peptide-MHC binding
Molecule type: peptide
Concentration: concentration not given
Sequence | binding
PMQQLTQPL | inactive
RMMATKDSF | inactive
GTVPTDNPF | inactive

Sample 4
Target: Prothrombin, mature alpha-thrombin (F2, Homo sapiens, UniProt P00734)
Method: aptamer microarray, sandwich
Molecule type: DNA with 2'F-ANA
Matrix: in vitro
Concentration: 200 nM
Notes: whole 15-mer aptamer, many near background
Together with: Cy3 exosite-II aptamer, 400 nM
Direction: higher = stronger binding
Sequence: GGTTGGTGTGGTTGG
Modification | mean fluorescence intensity [a.u.]
2'F-ANA at 2 4 6 7 8 13 | 240
2'F-ANA at 3 5 6 7 8 12 13 14 | 75
2'F-ANA at 1 3 12 | 719
2'F-ANA at 1 2 4 8 | 155
2'F-ANA at 1 2 4 5 6 7 8 10 11 12 13 15 | 48.8
2'F-ANA at 4 6 7 8 10 11 | 77.3
2'F-ANA at 4 6 7 8 9 12 14 | 104
2'F-ANA at 2 4 5 7 9 10 11 12 14 | 86.2

Sample 5
Target: Histone acetyltransferase KAT6A, winged helix 1, GST fusion (KAT6A, Homo sapiens, UniProt Q92794, residues 1-85)
Method: protein binding microarray
Molecule type: double-stranded DNA, one strand shown
Matrix: in vitro
Concentration: not given
Notes: 8-mer, flanks averaged, mean of 2 arrays, mostly near background
Reference: not given
Direction: higher = stronger binding
Construct (chain): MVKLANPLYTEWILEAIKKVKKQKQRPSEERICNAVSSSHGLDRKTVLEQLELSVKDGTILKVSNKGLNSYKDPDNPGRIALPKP
Sequence | E-score
AGATCCAC | -0.207
ACAAGGGC | -0.0594
AATTGTTC | -0.154
AAAAAGAC | -0.158
GGCGTTCA | 0.0338
CTATGTAC | -0.118
TAGGGATA | -0.128
CGACCGCA | 0.254

Other studies, line by line
Structure (SMILES) | target | test | conditions | quantity | result
CNCc1ccccc1-c1csc([C@@H](C)Nc2nc(C)nc3cc(OC)c(OC)cc23)c1 | Kappa-type opioid receptor (OPRK1, Homo sapiens, UniProt P41145) | cell-free assay | 10 µM | inhibition | 26.9%

A few entries again (sample 1):
Substitution | binding fitness [natural log]
L45S | -1.55
E54T | -1.49
T37E | -1.44
Q41G | -1.51
